Measured values of several laboratories.
Numbered parts are unrelated; each lists some results of a single study.

Block 1
Target: Histone acetyltransferase KAT6A, both winged helices, GST fusion (KAT6A, Homo sapiens, UniProt Q92794, residues 1-181)
Technique: protein binding microarray
Form: double-stranded DNA, one strand shown
Sample: in vitro
Tested at: not given
Setting: 8-mer, flanks averaged, mean of 2 arrays, mostly near background
Reference: not given
Direction: higher = stronger binding
Endpoint: E-score
Target sequence (chain): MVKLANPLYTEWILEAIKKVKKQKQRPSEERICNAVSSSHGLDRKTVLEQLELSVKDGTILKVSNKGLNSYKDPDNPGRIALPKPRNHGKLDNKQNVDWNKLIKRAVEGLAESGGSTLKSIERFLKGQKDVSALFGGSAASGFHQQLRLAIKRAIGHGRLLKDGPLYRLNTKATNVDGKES
GACAGCAA: -0.147
AAGTGCGA: 0.115
TCATCTAA: -0.0553
TCAAATGA: -0.139
AAAGCATC: 0.0667
ACAGTATA: -0.0699
CTGGCAAC: -0.165
ATCCGGAT: -0.124

Block 2
Organism: SARS-CoV-2
Read-out: cytopathic effect
Cell line: Vero E6
Tested at: 10 µM
Endpoint: inhibition
c1cnc2c([O][Ga]([O]c3cccc4cccnc34)[O]c3cccc4cccnc34)cccc2c1: -4.8%
C=CC(=O)c1ccc2ccccc2c1: -2.1%
Cc1ccc(S(=O)(=O)c2ccc([N+](=O)[O-])o2)cc1: -32.2%
NC(Cc1cc(O)c(O)cc1O)C(=O)O (racemic): -3.5%
Sc1nnc(-c2ccccc2Cl)o1: -0.8%

Block 3
Cell line: HEK-293T/ACE2
Tested at: 10 µM
Time: 16 h
Reference: vehicle
Endpoint: viability
O=C(O)CCCc1ccccc1: 102%
O=C1NC(=O)C(c2ccccc2)(c2ccccc2)N1: 100%
NC(=O)CC[C@H](N)C(=O)O: 101%

Block 4
Target: Replicase polyprotein 1ab, polymerase (rep, Severe acute respiratory syndrome coronavirus 2, UniProt P0DTD1)
Read-out: enzyme activity
Action: inhibitor
Tested at: 20 µM
Endpoint: inhibition
Cc1ccc(-c2ncn(-c3ccc(Nc4nccc(-c5cccc(N6CCOCC6)c5)n4)cc3)n2)cn1: -1.46%
COc1cccc(CCc2ccccc2OCC(CN(C)C)OC(=O)CCC(=O)O)c1 (centres unmarked): 2.66%
COc1ccc(Nc2ncnc3ccc(OC)cc23)cc1: 3.25%
C[n+]1cccc(C(=O)[O-])c1: -0.59%
CO[C@H]1/C=C\C=C(/C)C(=O)NC2=CC(=O)C(NCCN(C)C)=C(C[C@@H](C)C[C@H](OC)[C@H](O)[C@@H](C)/C=C(\C)[C@@H]1OC(N)=O)C2=O: 5.34%
COC(=O)C1=C(C)NC(C)=C(C(=O)OCC(C)C)C1c1ccccc1[N+](=O)[O-] (centres unmarked): 1.45%
COc1ccccc1OCCNCC(O)COc1cccc2[nH]c3ccccc3c12 (centres unmarked): -2.75%
O=C(c1cccc(Cl)c1F)N1CCN(Cc2cccc(Nc3nccs3)n2)CC1: -1.43%
CC(C)(C#N)c1cc(Cn2cncn2)cc(C(C)(C)C#N)c1: -7.65%
CC(C)(C)Nc1nc(Nc2ccc(C(N)=O)cc2)cc(N)c1C#N: 1.16%
O=C(O)CCCC[C@@H]1SC[C@@H]2NC(=O)N[C@@H]21: 20.8%
CCN1C[C@]2(OC(=O)c3ccccc3NC(C)=O)CC[C@H](OC)[C@@]34[C@@H]2C[C@@H]([C@@H]13)[C@@]1(O)C[C@H](OC)[C@H]2C[C@@H]4[C@]1(O)[C@H]2OC: -4.33%
Cc1cc2nc3c(=O)[nH]c(=O)nc-3n(C[C@H](O)[C@H](O)[C@H](O)COP(=O)(O)O)c2cc1C: 16.7%
COc1ccc2ccc(=O)oc2c1CC=C(C)C: -1.02%
CCN(CCCCOC(=O)c1ccc(OC)c(OC)c1)C(C)Cc1ccc(OC)cc1 (centres unmarked): 12.6%
Cc1ccc(O)c(N=Nc2ccccc2)n1: 0.88%

Excerpt of the above (block 2):
Cc1ccc(S(=O)(=O)c2ccc([N+](=O)[O-])o2)cc1: -32.2%
NC(Cc1cc(O)c(O)cc1O)C(=O)O (racemic): -3.5%
